Measured values collected from several papers.
Lines come from different studies, so protocols differ. “And” joins repeats or separate records; there may be more than shown. Numbers after ± are the reported error.

By UniProt entry, the sequences of proteins in these tests, tags left out. Residues count along the entry.
UniProt P45983, 1-384 isoform 3: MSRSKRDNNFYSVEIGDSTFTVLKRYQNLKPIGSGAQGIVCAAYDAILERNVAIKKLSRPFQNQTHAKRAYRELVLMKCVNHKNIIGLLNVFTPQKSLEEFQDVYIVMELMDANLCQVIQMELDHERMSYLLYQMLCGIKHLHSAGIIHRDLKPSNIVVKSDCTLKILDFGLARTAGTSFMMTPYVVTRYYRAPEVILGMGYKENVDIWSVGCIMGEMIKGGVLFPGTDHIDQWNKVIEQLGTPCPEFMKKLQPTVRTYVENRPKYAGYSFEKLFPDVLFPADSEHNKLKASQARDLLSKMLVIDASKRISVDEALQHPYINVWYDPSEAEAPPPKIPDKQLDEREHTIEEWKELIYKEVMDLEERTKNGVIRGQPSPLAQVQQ

Compound = CC(=O)Nc1ccc(-c2nc(C)c(CSc3ccc(OCC(=O)O)c(C)c3)s2)cc1; target or system = HEK293T; conditions = 18 h; endpoint = CC50; result = > 100 µM
Compound = CCOc1ccccc1Nc1nnc(SCC(=O)Nc2cc(F)ccc2F)s1; target or system = PBMC-airway epithelium co-culture; conditions = 10 µM, 48 h, together with: anti-CD3/CD28; endpoint = TNF-α secretion; result = 211 ± 9 pg/mL
Compound = CC(=NN=c1[nH]c2cc(F)c(F)cc2n1C)c1ccc(F)cn1; assay = lung metastatic growth, lung luciferase; test system = LM2, nude mice; conditions = 10 mg/kg/day; endpoint = inhibition; result = > 70%
Compound = Cc1cc(SCc2sc(-c3cccc(C(=O)NCCCN(C)C)c3)nc2C)ccc1OCC(=O)O; target or system = HEK293T; conditions = 18 h; endpoint = CC50; result = not toxic
Compound = COC(=O)[C@@]1(C)C=C(C(=O)Nc2cccc(C(=O)NC34CC(Nc5nccc(-c6cccnc6)n5)(C3)C4)c2)C(=O)CC1; target or system = Mitogen-activated protein kinase 8 (MAPK8, Homo sapiens, UniProt P45983); assay = kinase activity, inhibitor; conditions = 2.788e-05 µM, together with: 10 mM GSH; endpoint = remaining activity; result = 1.02 fraction of control
Compound = CCC1NC(=O)C(CCCNC(=N)N)NC(=O)C(C)(NC(=O)C(C)C)CCCCNC(=O)C(c2ccccc2)NC1=O (stereo not drawn); assay = cell growth, CellTiter-Glo; test system = MLL-AF9 leukaemia cells, mouse; endpoint = GI50; result = ~10 µM
Compound = CCOC(=O)C1=C(C)NC2=C(C(=O)CC(C)(C)C2)C1c1ccc(OCC(=O)NN=Cc2cccc(C=O)c2)cc1OCC(=O)NN=Cc1cccc(C=O)c1 (stereo not drawn); target or system = Enterobacter aerogenes; test system = CCM 2531; conditions = concentration not given, 24 h; endpoint = inhibition zone diameter; result = 3.1 ± 0.6 mm
Compound = COc1cc([C@@H]2c3cc4c(cc3[C@](O)(C3(O)CCOCC3)[C@H]3COC(=O)[C@H]23)OCO4)cc(OC)c1OC; target or system = Leishmania infantum; assay = Alamar Blue; test system = HepG2; how to read = reference: CC50 HepG2 over EC50 amastigotes; endpoint = selectivity index; result = > 17.1
Compound = C=CC(=O)N1CCC(c2cc(Nc3cc4n(n3)CCOC4)c3ncnn3c2)C1 (single isomer, unassigned); target or system = TMD8 wild type; assay = calcium flux, FLIPR; conditions = 1 h preincubation, together with: anti-IgM; endpoint = IC50; result = > 1 µM
Compound = COC(=O)[C@@H]1C(C=Nc2cncnc2NC(C)=O)=Cc2cc3c(cc2[C@H]1c1cc(OC)c(OC)c(OC)c1)OCO3; target or system = Leishmania infantum; test system = promastigote, iRFP; endpoint = EC50; result = 94.5 ± 3 µM
Compound = C/C=C/Cn1c(Cc2cc(OC)c(OC)c(OC)c2)nc2c(N)ncnc21; target or system = Hsp90α and Hsp90β; assay = binding, fluorescence polarization competition; conditions = together with: Cy3B-geldanamycin tracer; how to read = reference: Ki Hsp90β over Ki Hsp90α; endpoint = selectivity ratio; result = 11.3 fold and ~11 fold
Compound = COC(=O)[C@@H]1C(c2nc3cc(C)ccc3o2)=Cc2cc3c(cc2[C@H]1c1cc(OC)c(OC)c(OC)c1)OCO3; target or system = Leishmania infantum; assay = iRFP fluorescence; test system = mouse splenocytes infected, amastigote, iRFP, ex vivo splenic explant; conditions = 48 h; endpoint = EC50; result = 9.7 ± 1.8 µM
Compound = Cc1ncsc1-c1ccc([C@H](C)NC(=O)[C@@H]2C[C@@H](O)CN2C(=O)[C@@H](NC(=O)CCCCCCC(=O)N2CCN(C[C@]3(C)CCC(c4ccc(Cl)cc4)=C(CN4CCN(c5ccc(C(=O)NS(=O)(=O)c6ccc(N[C@H](CCN7CCOCC7)CSc7ccccc7)c(S(=O)(=O)C(F)(F)F)c6)cc5)CC4)C3)CC2)C(C)(C)C)cc1; assay = measured: SASP and necroptosis genes; test system = STAM mice NASH-HCC model, liver; conditions = dose not given, day 150, treated days 45-150; endpoint = mRNA level; result = decreased
Compound = COc1cc([C@@H]2c3cc4c(cc3[C@@H](C=C(C)C)[C@H]3COC(=O)[C@H]23)OCO4)cc(OC)c1OC; target or system = Leishmania infantum; test system = promastigote, iRFP; endpoint = EC50; result = 14.5 ± 0.3 µM
Compound = C[C@@H]1CN(C2CCC2)CC[C@H](O[C@H]2[C@@H](O)C[C@H](O[C@H]3[C@@H](O)C[C@H](O[C@H]4CC[C@@]5(C)[C@H](CC[C@@H]6[C@@H]5C[C@@H](O)[C@]5(C)[C@@H](C7=CC(=O)OC7)CC[C@]65O)C4)O[C@@H]3C)O[C@@H]2C)O1; test system = rat hippocampal slices; conditions = 1 µM, ~14 min, trace 2, together with: electrical stimulation; how to read = reference: pre-drug control; endpoint = peak stimulus-induced K+ rise; result = 116 ± 5%

A few entries again:
Compound = COC(=O)[C@@H]1C(C=Nc2cncnc2NC(C)=O)=Cc2cc3c(cc2[C@H]1c1cc(OC)c(OC)c(OC)c1)OCO3; target or system = Leishmania infantum; test system = promastigote, iRFP; endpoint = EC50; result = 94.5 ± 3 µM
Compound = COc1cc([C@@H]2c3cc4c(cc3[C@](O)(C3(O)CCOCC3)[C@H]3COC(=O)[C@H]23)OCO4)cc(OC)c1OC; target or system = Leishmania infantum; assay = Alamar Blue; test system = HepG2; how to read = reference: CC50 HepG2 over EC50 amastigotes; endpoint = selectivity index; result = > 17.1
